Assay results pooled from the literature.
Each numbered part is a random draw from the data of one study; scales do not carry over between parts.
Chain of UniProt P54578 (whole entry, looked up): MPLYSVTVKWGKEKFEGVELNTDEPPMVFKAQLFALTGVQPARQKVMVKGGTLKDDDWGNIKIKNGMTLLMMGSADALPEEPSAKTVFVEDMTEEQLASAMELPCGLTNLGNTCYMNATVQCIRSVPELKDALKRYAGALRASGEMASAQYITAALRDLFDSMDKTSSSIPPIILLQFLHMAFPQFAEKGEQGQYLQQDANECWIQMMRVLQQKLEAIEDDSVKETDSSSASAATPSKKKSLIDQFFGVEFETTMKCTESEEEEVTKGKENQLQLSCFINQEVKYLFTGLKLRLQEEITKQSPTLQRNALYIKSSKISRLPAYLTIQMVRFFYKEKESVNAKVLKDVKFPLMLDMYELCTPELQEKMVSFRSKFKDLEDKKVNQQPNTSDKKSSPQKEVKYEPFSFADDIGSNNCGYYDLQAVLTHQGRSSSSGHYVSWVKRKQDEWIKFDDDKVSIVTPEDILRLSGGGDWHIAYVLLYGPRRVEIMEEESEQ
Chain of UniProt P40818 (whole entry, looked up): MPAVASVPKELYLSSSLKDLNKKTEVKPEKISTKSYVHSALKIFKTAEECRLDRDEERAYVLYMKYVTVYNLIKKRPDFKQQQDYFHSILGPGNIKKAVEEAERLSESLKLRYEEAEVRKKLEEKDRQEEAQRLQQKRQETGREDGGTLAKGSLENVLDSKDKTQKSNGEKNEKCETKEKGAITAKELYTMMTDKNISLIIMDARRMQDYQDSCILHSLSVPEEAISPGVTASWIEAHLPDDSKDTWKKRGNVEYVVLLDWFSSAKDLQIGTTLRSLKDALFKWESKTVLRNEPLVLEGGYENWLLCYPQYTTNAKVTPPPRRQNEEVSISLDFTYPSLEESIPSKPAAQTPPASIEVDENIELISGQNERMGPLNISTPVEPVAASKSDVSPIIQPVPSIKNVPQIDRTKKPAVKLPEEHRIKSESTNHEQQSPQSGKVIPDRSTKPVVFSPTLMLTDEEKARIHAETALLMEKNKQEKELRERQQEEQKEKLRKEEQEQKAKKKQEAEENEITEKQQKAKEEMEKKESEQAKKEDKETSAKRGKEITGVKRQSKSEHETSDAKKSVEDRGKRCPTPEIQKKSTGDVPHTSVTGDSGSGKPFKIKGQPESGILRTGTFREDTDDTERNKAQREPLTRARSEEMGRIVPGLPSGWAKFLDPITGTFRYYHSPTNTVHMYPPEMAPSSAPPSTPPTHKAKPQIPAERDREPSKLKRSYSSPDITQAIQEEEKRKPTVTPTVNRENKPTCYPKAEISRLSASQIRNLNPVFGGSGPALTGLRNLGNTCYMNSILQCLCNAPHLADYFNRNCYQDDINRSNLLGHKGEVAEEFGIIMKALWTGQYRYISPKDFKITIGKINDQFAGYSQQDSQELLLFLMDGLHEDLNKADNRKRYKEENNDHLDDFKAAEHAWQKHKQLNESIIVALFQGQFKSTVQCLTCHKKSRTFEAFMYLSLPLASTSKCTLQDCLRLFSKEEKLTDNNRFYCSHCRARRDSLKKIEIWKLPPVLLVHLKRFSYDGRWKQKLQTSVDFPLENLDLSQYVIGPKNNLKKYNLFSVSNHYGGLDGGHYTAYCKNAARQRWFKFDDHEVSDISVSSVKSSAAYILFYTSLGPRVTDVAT
Chain of UniProt P45974 (whole entry, looked up): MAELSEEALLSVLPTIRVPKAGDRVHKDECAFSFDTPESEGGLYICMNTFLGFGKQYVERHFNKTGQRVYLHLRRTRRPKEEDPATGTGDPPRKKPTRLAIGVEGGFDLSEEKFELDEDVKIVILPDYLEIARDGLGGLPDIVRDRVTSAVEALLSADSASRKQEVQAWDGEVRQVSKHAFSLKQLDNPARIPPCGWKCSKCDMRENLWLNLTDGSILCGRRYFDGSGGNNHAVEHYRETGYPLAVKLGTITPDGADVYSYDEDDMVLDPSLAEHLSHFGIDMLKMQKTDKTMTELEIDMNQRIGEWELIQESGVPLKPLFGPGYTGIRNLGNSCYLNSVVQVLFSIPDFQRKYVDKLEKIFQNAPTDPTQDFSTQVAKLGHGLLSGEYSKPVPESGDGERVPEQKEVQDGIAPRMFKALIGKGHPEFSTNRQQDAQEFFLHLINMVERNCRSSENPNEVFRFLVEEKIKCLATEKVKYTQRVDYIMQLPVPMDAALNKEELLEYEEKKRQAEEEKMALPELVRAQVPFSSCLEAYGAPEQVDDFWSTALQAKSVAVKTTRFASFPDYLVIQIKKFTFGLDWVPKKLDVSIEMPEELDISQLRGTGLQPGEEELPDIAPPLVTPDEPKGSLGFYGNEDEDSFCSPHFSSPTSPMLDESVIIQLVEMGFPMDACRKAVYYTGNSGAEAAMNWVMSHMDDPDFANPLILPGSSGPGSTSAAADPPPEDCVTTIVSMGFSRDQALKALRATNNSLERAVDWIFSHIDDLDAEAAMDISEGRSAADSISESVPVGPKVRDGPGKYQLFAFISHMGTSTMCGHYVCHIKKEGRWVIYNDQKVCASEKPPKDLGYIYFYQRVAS

Sample 1
Target: HLA class I histocompatibility antigen, A alpha chain, allele A*26:03 (Homo sapiens, UniProt P04439)
Read-out: peptide-MHC binding
Form: peptide
Tested at: concentration not given
For `GWPDNYCEW`, binding read “inactive”.
For `EEDAAVDDL`, binding read “inactive”.
Under binding, `TIIDRIGPY` is recorded as “active”.
`EGIPGLYTY`: binding “inactive”.
Under binding, `QVGIFLICK` is recorded as “inactive”.

Sample 2
Molecule: ubiquitin aldehyde
Read-out: enzyme activity
UCHL3: Ubiquitin carboxyl-terminal hydrolase isozyme L3 (UCHL3, Homo sapiens, UniProt P15374)
Chain of UniProt P15374 (whole entry, looked up): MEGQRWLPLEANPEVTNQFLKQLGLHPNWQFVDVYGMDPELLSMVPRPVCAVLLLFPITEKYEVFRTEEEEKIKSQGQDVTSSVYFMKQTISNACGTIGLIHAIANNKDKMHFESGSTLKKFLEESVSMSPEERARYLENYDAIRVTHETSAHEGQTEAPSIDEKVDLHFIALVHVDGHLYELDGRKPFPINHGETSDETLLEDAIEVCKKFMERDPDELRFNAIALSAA
For USP8 (Homo sapiens, UniProt P40818); 0.1 µM: inhibition read 35%.
UCHL3; 0.001 µM — inhibition: 33%.
For USP14 (Homo sapiens, UniProt P54578); 0.001 µM: inhibition read 19%.
For UCHL3; 0.0001 µM: inhibition read 4%.
For USP5 (Homo sapiens, UniProt P45974); 1 µM: inhibition read 97%.

Sample 3
Target: UBE2D2 UBC core domain (UniProt P62837)
Chain of UniProt P62837 (whole entry, looked up): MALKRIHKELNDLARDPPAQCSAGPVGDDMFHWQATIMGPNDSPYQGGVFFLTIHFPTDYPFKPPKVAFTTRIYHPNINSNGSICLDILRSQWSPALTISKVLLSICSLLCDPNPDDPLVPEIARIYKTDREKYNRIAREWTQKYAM
Method: yeast two-hybrid
Sample: yeast
Notes: mostly zero background
Relative to: not given
Direction: higher = stronger interaction
B1: ARK2C RING domain (UniProt Q6ZSG1); chain EGEESDTDEKCTICLSMLEDGEDVRRLPCMHLFHQLCVDQWLAMSKKCPICRVDIETQLGAD
B2: TRIM69 RING domain (UniProt Q86WT6); chain VIQDITMELHCPLCNDWFRDPLMLSCGHNFCEACIQDFWRLQAKETFCPECKMLCQYNNCTF
B3: PHF21A RING domain (UniProt Q96BD5); chain SPTSTDGDIHEDFCSVCRKSGQLLMCDTCSRVYHLDCLDPPLKTIPKGMWICPRCQDQMLKKEEAIPW
B4: RC3H2 RING domain (UniProt Q9HBD1); chain QAAQWTEFLSCPICYNEFDENVHKPISLGCSHTVCKTCLNKLHRKACPFDQTAINTDIDVL
B5: TRIM72 RING domain (UniProt Q6ZMU5); chain APGLLHQELSCPLCLQLFDAPVTAECGHSFCRACLGRVAGEPAADGTVLCPCCQAPTRPQALST
B6: RNF170 RING domain (UniProt Q96K19); chain TRQQFYTDMYCPICLHQASFPVETNCGHLFCGACIIAYWRYGSWLGAISCPICRQTVTLLLTVF
B7: TRIM63 RING domain (UniProt Q969Q1); chain PMENLEKQLICPICLEMFTKPVVILPCQHNLCRKCANDIFQAANPYWTSRGSSVSMSGGRFRCPTCRHEVIMDRHGV
Under “lacZ reporter activity”, `QLRRLQEERTCKVCMDKEVSVVFIPCGHLVVCQECAPSLRKCPICRGIIKGTVRTF (BIRC2 RING domain (UniProt Q13490))` is recorded as 0.
`B1 (ARK2C RING domain)` — result for “lacZ reporter activity”: 14800.
`YWAMDSTFELCKICAESNKDVKIEPCGHLLCSCCLAAWQHSDSQTCPFCRCEIKGWEAVS (CBLC RING domain (UniProt Q9ULV8))` — result for “lacZ reporter activity”: 0.
`KTLSRFGIQPCSICLGDAKDPVCLPCDHVHCLRCLRAWFASEQMICPYCLTALPDEFSPA (RNF213 RING domain (UniProt Q63HN8))` — result for “lacZ reporter activity”: 0.
For `B2 (TRIM69 RING domain)`, “lacZ reporter activity” read 0.
`QHHELTSLFECPVCFDYVLPPILQCQAGHLVCNQCRQKLSCCPTCRGALTPSIRNL (SIAH2 RING domain (UniProt O43255))`: “lacZ reporter activity” 0.
`VTLSLTLPITCHICLGKVRQPVICINNHVFCSICIDLWLKNNSQCPACRVPITPENPCK (OBI1 RING domain (UniProt Q5W0B1))`: “lacZ reporter activity” 0.
For `B3 (PHF21A RING domain)`, “lacZ reporter activity” read 0.
Under “lacZ reporter activity”, `B4 (RC3H2 RING domain)` is recorded as 0.
`B5 (TRIM72 RING domain)`: “lacZ reporter activity” 0.
`B6 (RNF170 RING domain)` — result for “lacZ reporter activity”: 0.
For `DAIPSLSECQCGICMEILVEPVTLPCNHTLCKPCFQSTVEKASLCCPFCRRRVSSWTRYH (RNF168 RING domain (UniProt Q8IYW5))`, “lacZ reporter activity” read 0.
`QLRRLQEERTCKVCMDKEVSIVFIPCGHLVVCKDCAPSLRKCPICRSTIKGTVRTF (BIRC3 RING domain (UniProt Q13489))` — result for “lacZ reporter activity”: 0.
`B7 (TRIM63 RING domain)` — result for “lacZ reporter activity”: 0.

Sample 4
Target: Centromere-binding protein 1, full length, His-tagged (CBF1, Saccharomyces cerevisiae, UniProt P17106, residues 1-351)
Chain of UniProt P17106 (whole entry, looked up): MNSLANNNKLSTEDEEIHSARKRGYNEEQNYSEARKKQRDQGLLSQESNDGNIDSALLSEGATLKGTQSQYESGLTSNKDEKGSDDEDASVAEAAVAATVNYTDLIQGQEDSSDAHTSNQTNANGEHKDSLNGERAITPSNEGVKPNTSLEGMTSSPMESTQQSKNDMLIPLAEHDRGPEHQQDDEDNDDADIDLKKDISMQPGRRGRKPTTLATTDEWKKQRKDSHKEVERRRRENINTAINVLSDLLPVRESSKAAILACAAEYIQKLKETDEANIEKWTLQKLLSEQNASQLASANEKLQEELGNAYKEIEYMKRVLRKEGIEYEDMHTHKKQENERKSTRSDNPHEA
Method: competition protein-binding microarray
Form: double-stranded DNA, one strand shown
Sample: in vitro
Tested at: 2 µM
Notes: whole 60-bp probe, lowest competitor level
With: Pho4 competitor, 0.05 µM
Direction: higher = stronger binding
`TTCATCGAATGCTTGCGCATGCCAATGCACAGACAAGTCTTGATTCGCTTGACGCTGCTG` gave a fluorescence intensity of 69.3 a.u.
For `TCTTATTTAATTCGTCACAGACGGTAACGCAGCGCCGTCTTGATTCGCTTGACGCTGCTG`, the fluorescence intensity was 89 a.u.
`TGCGCAACAACTTGCTTTGTGGGTGTATGTCTAGAAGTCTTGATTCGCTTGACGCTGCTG` gave a fluorescence intensity of 82.1 a.u.
`CTTTCCCGATCTTGTCACAAAACTTTAGCACATTTGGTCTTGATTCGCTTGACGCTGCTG` has a fluorescence intensity of 72.4 a.u.
`TATCAGGATCAACAGCACATGCAAACACCCCAATTCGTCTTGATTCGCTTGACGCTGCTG` gave a fluorescence intensity of 111 a.u.
With `ACTGAGTCTACCAGTTATGTGACAGTATATGTCAGCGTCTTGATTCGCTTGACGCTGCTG` the fluorescence intensity was 76.4 a.u.
`GTCTTGTCTCATTGACCGGTGGGTGTCCCCACTTCAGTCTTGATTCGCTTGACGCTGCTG` gave a fluorescence intensity of 79.8 a.u.
`AGCACTTACGGTTACAACGTGAGCCCTGTCGAAGAAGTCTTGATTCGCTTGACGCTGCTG` has a fluorescence intensity of 99.1 a.u.

Repeated from above (sample 3):
For `DAIPSLSECQCGICMEILVEPVTLPCNHTLCKPCFQSTVEKASLCCPFCRRRVSSWTRYH (RNF168 RING domain (UniProt Q8IYW5))`, “lacZ reporter activity” read 0.
`QLRRLQEERTCKVCMDKEVSIVFIPCGHLVVCKDCAPSLRKCPICRSTIKGTVRTF (BIRC3 RING domain (UniProt Q13489))` — result for “lacZ reporter activity”: 0.
`B7 (TRIM63 RING domain)` — result for “lacZ reporter activity”: 0.
